Measured values of several laboratories.
Lines come from different studies, so protocols differ. ± marks the error that the study gave.
Sequence of UniProt P31751 (whole entry, looked up): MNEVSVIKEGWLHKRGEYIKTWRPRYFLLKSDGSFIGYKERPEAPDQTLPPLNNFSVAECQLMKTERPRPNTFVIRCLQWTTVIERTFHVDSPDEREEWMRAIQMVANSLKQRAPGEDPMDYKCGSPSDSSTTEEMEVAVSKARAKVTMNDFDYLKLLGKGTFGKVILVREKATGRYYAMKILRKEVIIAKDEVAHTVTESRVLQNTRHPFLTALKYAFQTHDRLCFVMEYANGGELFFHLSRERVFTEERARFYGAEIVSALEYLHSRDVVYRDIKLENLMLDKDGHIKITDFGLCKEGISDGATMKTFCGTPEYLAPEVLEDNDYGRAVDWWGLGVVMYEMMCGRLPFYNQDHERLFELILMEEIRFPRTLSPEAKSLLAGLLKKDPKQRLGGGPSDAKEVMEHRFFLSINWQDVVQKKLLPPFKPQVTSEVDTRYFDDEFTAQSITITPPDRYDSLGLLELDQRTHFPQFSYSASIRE

COc1ccc(-c2cc(=O)c3c(OC)c(OC)c(OC)c(OC)c3o2)cc1OC — Vz/F (Sprague Dawley rat, plasma; oral, 10 g lyophilized powder/kg, high dose): 8690 ± 5650 L/kg
CC(C)C[C@@H]1NC(=O)CNC(=O)[C@H](CC(N)=O)NC(=O)[C@H](CCCNC(=N)N)NC(=O)[C@H]([C@@H](C)O)NC(=O)[C@@H]2CSSC[C@@H]3NC(=O)[C@H]([C@@H](C)O)NC(=O)CNC(=O)CNC(=O)[C@H](C(C)C)NC(=O)[C@@H]4CSSC[C@H](NC(=O)[C@H]([C@@H](C)O)NC(=O)[C@H](CSSC[C@H](NC(=O)[C@H](C(C)C)NC(=O)[C@@H]5CCCN5C1=O)C(=O)NCC(=O)N[C@@H](CCC(=O)O)C(=O)N[C@@H](CCCCN)C(=O)N4)NC(=O)CNC(=O)[C@@H]1CCCN1C(=O)[C@H]([C@@H](C)O)NC(=O)[C@H](CC(N)=O)NC3=O)C(=O)N[C@@H](CO)C(=O)N[C@@H](Cc1c[nH]c3ccccc13)C(=O)N1CCC[C@H]1C(=O)N[C@@H](C(C)C)C(=O)N2 — remaining peptide (HPLC; ammonium bicarbonate; 180 µM, 14 days, pH 9.0, 25 °C, deamidation stability): 89.6 ± 1.4%
N[C@@H]1c2ccccc2OC12CCN(c1cnc3c(N4CCCc5ncccc54)n[nH]c3n1)CC2 — platelet count decreased AE incidence (phase Ia; patients advanced metastatic solid tumours; oral, dose not given, all doses, any relationship): 21%
CC[C@H](C)[C@H](NC(=O)[C@H](Cc1ccccc1)NC(=O)[C@H](CCC(=O)O)NC(=O)[C@H](CCCNC(=N)N)NC(=O)[C@H](C)NC(=O)[C@H](C)NC(=O)[C@H](CCC(N)=O)NC(=O)[C@H](CCC(=O)O)NC(=O)[C@H](CCC(=O)O)NC(=O)[C@H](CC(C)C)NC(=O)[C@H](Cc1ccc(O)cc1)NC(=O)[C@H](CO)NC(=O)[C@H](CO)NC(=O)[C@@H](NC(=O)[C@H](CC(=O)O)NC(=O)[C@H](CO)NC(=O)[C@@H](NC(=O)[C@H](Cc1ccccc1)NC(=O)[C@@H](NC(=O)CNC(=O)[C@H](CCC(=O)O)NC(=O)[C@H](C)NC(=O)CCc1cnc[nH]1)[C@@H](C)O)[C@@H](C)O)C(C)C)C(=O)N[C@@H](C)C(=O)N[C@@H](Cc1c[nH]c2ccccc12)C(=O)N[C@@H](CC(C)C)C(=O)N[C@H](C(=O)N[C@@H](CCCNC(=N)N)C(=O)NCC(=O)N[C@@H](CCCNC(=N)N)C(=O)N[C@@H](CCCCNC(=O)COCCOCCNC(=O)COCCOCCNC(=O)CC[C@H](NC(=O)CCCCCCCCCCCCCCCCC(=O)O)C(=O)O)C(=O)NCC(=O)NCC(=O)N[C@@H](CO)C(=O)N[C@@H](CCSC)C(=O)N[C@H](C(=O)N[C@@H](CCCCNc1c(NCCCCCN(O)C(=O)CCC(=O)NCCCCCN(O)C(=O)CCC(=O)NCCCCCN(O)C(C)=O)c(=O)c1=O)C(=O)O)C(C)C)C(C)C [zirconium-89 labelled] — tissue uptake (ex vivo gamma counting; male Sprague-Dawley rats, kidney; intravenous, 1 nmol, 72 h, mean of 3 animals): 4.5 ± 0.4 %ID/g
O=C(Nc1ccccc1)C1CCN(C(=O)Oc2cccnc2)CC1 — subjects with Rhinitis adverse event (adverse event reporting; healthy women; oral, 100 mg, 9 days): 7.7%
CCN(CCO)CCCC(C)Nc1ccnc2cc(Cl)ccc12 (stereo not drawn) — neutrophil decrease patients (newly diagnosed glioblastoma patients; oral, 200 mg/dose, grade 3, with: radiotherapy and temozolomide): 33%
CCCC1CCC(C2CCC(c3ccc(F)c(F)c3)CC2)CC1 (stereo not drawn) — concentration (refers to: compound; human pregnant women, male fetuses, maternal serum; dose not given, paired maternal-cord samples, mean): 0.33 ng/mL
C[C@]1(CO)Cc2ncn(-c3ccc(C#N)c(Cl)c3)c2C(=O)O1 — subjects with drug-related acne (human, Chinese; 3 mg single dose): 0%
COc1ncccc1-c1cnn2ccc(N3CCN(C(=O)OC(C)C)CC3)nc12 — free concentration (rat rotarod, plasma; 30 mg/kg, 180 min): 84 nM
Clc1ccc(Cl)c(-c2cc(Cl)c(Cl)cc2Cl)c1 — literature range factor (PDMS-water partitioning; PCB compilation; relative to: maximum over minimum K): 1.4
C[C@@H](NC(=O)N1C(=O)[C@H](Cc2ccnc(N)c2)[C@H]1C(=O)O)C1CCCCC1 — incidence of infusion site pain (healthy adult Chinese volunteers; continuous intravenous infusion, 2.25 mg/kg/h, 5-day infusion, CTCAE 5.0 grading): 0%
COc1cccc(-c2n[nH]c(SCc3ccccn3)n2)c1OC — revertant colonies per plate (Salmonella typhimurium; Ames test, plate incorporation; TA100; 0.063 mg/plate, without S9): 101
COc1cccc2c1CCCC2CCCN1CCN(C2CCCCC2)CC1 (stereo not drawn) — Tmax (CD-1 mouse, male, plasma; intraperitoneal, 30 mg/kg): 5 min
O=C(c1ccc(F)c(F)c1Nc1ccc(I)cc1F)N1CC(O)([C@@H]2CCCCN2)C1 — treatment-related AE causing dose modification (human patients; oral, dose not given, dose escalation, tablet): 17%
CN1CC[C@@H](c2c(O)cc(O)c3c(=O)cc(-c4ccc(C(F)(F)F)cc4Cl)oc23)[C@@H]1CO — patients with adverse event (refers to: Thrombocytopenia; relapsed B-cell malignancies; oral, 200 mg, grade 3-4, intermittent dosing): 0%
CC(C)C[C@@H]1NC(=O)CNC(=O)[C@H](CC(N)=O)NC(=O)[C@H](CCCNC(=N)N)NC(=O)[C@H]([C@@H](C)O)NC(=O)[C@@H]2CSSC[C@@H]3NC(=O)[C@H]([C@@H](C)O)NC(=O)CNC(=O)CNC(=O)[C@H](C(C)C)NC(=O)[C@@H]4CSSC[C@H](NC(=O)[C@H]([C@@H](C)O)NC(=O)[C@H](CSSC[C@H](NC(=O)[C@H](C(C)C)NC(=O)[C@@H]5CCCN5C1=O)C(=O)NCC(=O)N[C@@H](CCC(=O)O)C(=O)N[C@@H]([C@@H](C)O)C(=O)N4)NC(=O)CNC(=O)[C@@H]1CCCN1C(=O)[C@H]([C@@H](C)O)NC(=O)[C@H](CC(N)=O)NC3=O)C(=O)N[C@@H](CO)C(=O)N[C@@H](CCCCN)C(=O)N1CCC[C@H]1C(=O)N[C@@H](C(C)C)C(=O)N2 — remaining peptide (HPLC; ammonium bicarbonate 0.1 M; 180 µM, 14 days, pH 9.0, 37 °C, deamidation stability): 52.6 ± 2.4%
[Cl][212Pb][Cl] — tissue uptake (athymic mice, C4-2 xenograft, heart; intravenous, 2 h, 212Pb-labelled): 0.98 ± 0.3 %ID/g
CO[C@H]1C[C@@H]2CC[C@@H](C)[C@@](O)(O2)C(=O)C(=O)N2CCCC[C@H]2C(=O)O[C@H]([C@H](C)C[C@@H]2CC[C@@H](OC(=O)NCCOCCOCCOCCOCCOCCOCCOCCOCCC(=O)N3CCc4cc(Cn5nc(-c6ccc7oc(N)nc7c6)c6c(N)ncnc65)ccc4C3)[C@H](OC)C2)C[C@@H](O)[C@H](C)/C=C(\C)[C@@H](O)[C@@H](OC)C(=O)[C@H](C)C[C@H](C)/C=C/C=C/C=C/1C — TRAE incidence (phase 1 dose escalation, refers to: nausea; advanced solid tumour patients; intravenous, 8 mg weekly, grade ≥3): 6.3%
COc1ncnn2ccc(-c3cnc4nc(C)n(Cc5nnc([C@@H](C)F)o5)c4c3)c12 — incidence of grade 1 amylase increased (human patients; oral, dose not given): 0%
CC(=O)c1c([O-])cc(C)oc1=O.[Na+] — volume of distribution (female Wistar rat, plasma; oral, 200 mg/kg, no CYP inhibitor): 0.76 ± 0.03 L/kg
COc1ccc(C[C@@H]2NC(=O)[C@H]([C@@H](C)O)NC(=O)[C@@H]3[C@@H]4CCN3C(=O)[C@@H]3Cc5cn(c6ccc(F)cc56)CCCCCCN(Cc5ccc(cc5)CCNC(=O)[C@]5(C)CCCN5C2=O)C(=O)CCC(=O)N[C@@H](C)C(=O)N[C@H](CNC(=O)CCCCC[N+](C)(C)C)C(=O)N[C@@H](Cc2cccc(c2)CNC(=O)CO4)C(=O)N3)cc1 — participants with adverse event (refers to: Paraesthesia; humans; concentration not given, Study-001): 0%
CCC[C@@](N)(CO)CCc1ccc(OCCCCCC(C)C)cc1 — half-life (male hound dog, plasma; oral, 20 mg/kg, capsule, fasted, median): 26.7 h
c1ccc2c(c1)c1cccc3ccc4cccc2c4c31 — log K(PDMS-water) (fresh water; 12 (unit not given), 20 °C, SSP sampler, 100 µm): 5.09 ± 0.02
COc1cc2c(Oc3ccc4[nH]c(C)cc4c3F)ccnc2cc1OCC1(N)CC1 — grade 3 Proteinuria (paediatric recurrent refractory sarcoma; 8 mg): 0%
CC(=O)c1c(C)c2cnc(Nc3ccc(C4CCN(CCS(C)(=O)=O)CC4)cn3)nc2n(C2CCCC2)c1=O — elimination rate constant (human patients, plasma; oral, 100 mg twice daily, day 21 multiple doses, with: fulvestrant): 2.78e-05 s⁻¹
COc1cc2c(cc1OC)CN(CCc1ccc(NC(=O)c3cccc4c(=O)c5cccc(OC)c5[nH]c34)cc1)CC2 — elimination rate constant (CD-1 mouse, male, plasma; intraperitoneal, 10 mg/kg): 1.38e-05 s⁻¹
N=c1c2c(-c3ccccc3)c(-c3ccccc3)n(Cc3ccccc3)c2ncn1[C@H]1CC[C@H](O)CC1 — AUC(0-t)/AUC(0-inf) ratio (Gottingen minipig, female, plasma): < 60%
O=C1Nc2cc3[nH]nc(-c4ccncc4)c3cc2CN1Cc1ccccc1 — patients with constipation (CTCAE v4.03; advanced solid tumour patients; intravenous, 3.6 mg/kg, schedules 1/2): 0%
CC(C)=CC1C(C(=O)OC(C#N)c2cccc(Oc3ccccc3)c2)C1(C)C (stereo not drawn) — enzyme contribution to clearance (refers to: CYP2B6; human, age 6 months): 0.85%
C[C@H]1CN(c2n[nH]c3nc(N[C@H]4CC[C@H](NS(=O)(=O)CCC(F)(F)F)CC4)ncc23)CCO1 — relative abundance (AKT2 (Homo sapiens, UniProt P31751); inhibitor, Kinobeads competition profiling; 0.032 µM; relative to: vehicle): 1.14
CCS(=O)(=O)Nc1ccc(Oc2ccc(F)cc2F)c(-c2cn(C)c(=O)c3[nH]ccc23)c1 — treatment-emergent adverse events (fatal fungal infection; human, relapsed/refractory AML; oral, dose not given): 0%
N.N.[Cl][Pt][Cl] — body weight (nude mouse MCF7 xenograft; 5 mg/kg, day 4): 17.1 ± 0.6 g
C[C@H]1COCCN1c1nc(NCc2cccnc2C(F)(F)F)c2cccnc2n1 — BP change (anaesthetized rat; intravenous, 3 mg/kg; relative to: control): 4.6%
O=S(=O)(Nc1ccccc1)c1ccc(NC(=S)Nc2ccccc2)cc1 — serum enzyme activity (refers to: CK; female mouse, blood; oral, 80 mg/kg daily, 14 days): 3230 U/L
CNc1cc(-c2ccnc(Nc3ccc(N4CCN(C)CC4)c(C(F)(F)F)c3)n2)ccn1 — toxicity (zebrafish embryos; 50 µM, 5 d): 0%
C=C(CN(C(=O)c1c(C(F)F)nn(C)c1F)C1CC1)c1ccc(Cl)cc1Cl — mortality (static acute toxicity test; zebrafish (Brachydanio rerio); 0.833 mg a.i./L, 96 h): 30%
Clc1cc(-c2ccc(Cl)c(Cl)c2Cl)cc(Cl)c1Cl — literature range factor (PDMS-water partitioning; PCB compilation; relative to: maximum over minimum K): 1.4
Cc1cccc(Cn2nc(C3CC3)c3c(NC(=O)c4cnc5cc(OCCN6CCN(C)CC6)ccn45)cccc32)n1 — adverse events incidence (refers to: Pruritus; human advanced solid tumours; oral, 400 mg, all-causality): 0%
O=C(O)CCCOc1ccc(F)cc1-c1cc(-c2ccccc2C(F)(F)F)n(-c2ccccc2)n1 — leukocyte differential (refers to: Monocytes; Crl:CD(SD) rats, female, blood; iv, 25 µg/kg, 14 days): 2.5 ± 0.4%
CC(C)(O)c1cc(Nc2cc(Oc3cn(C4CC4)nc3C3CCOCC3)ccn2)ccn1 — treatment-emergent adverse events (Vomiting; advanced cancer patients, grade 4 glioma expansion; oral, 50 mg twice daily, all causality any grade): 15%
Clc1ccc(Cl)c(-c2cc(Cl)ccc2Cl)c1 — log K(PDMS-water) (fresh water; 20 °C, S100 sampler, 100 µm): 5.48 ± 0.04
NC(=O)[C@H]1CCN(c2ncnc(N)c2F)C[C@@H]1N1CCC[C@@H](Nc2cc(Cl)cc(C(F)(F)F)c2)C1=O — grade ≥3 bilirubin increase (B-cell malignancy patients; oral, 82 mg twice daily, dose): 0%
